{"data": "Experimental data of several laboratories", "note": "A part holds a random share of what one study measured. Several values in a cell are separate wells, animals, samples, runs or records.", "sequence of UniProt Q02156 (whole entry, looked up)": "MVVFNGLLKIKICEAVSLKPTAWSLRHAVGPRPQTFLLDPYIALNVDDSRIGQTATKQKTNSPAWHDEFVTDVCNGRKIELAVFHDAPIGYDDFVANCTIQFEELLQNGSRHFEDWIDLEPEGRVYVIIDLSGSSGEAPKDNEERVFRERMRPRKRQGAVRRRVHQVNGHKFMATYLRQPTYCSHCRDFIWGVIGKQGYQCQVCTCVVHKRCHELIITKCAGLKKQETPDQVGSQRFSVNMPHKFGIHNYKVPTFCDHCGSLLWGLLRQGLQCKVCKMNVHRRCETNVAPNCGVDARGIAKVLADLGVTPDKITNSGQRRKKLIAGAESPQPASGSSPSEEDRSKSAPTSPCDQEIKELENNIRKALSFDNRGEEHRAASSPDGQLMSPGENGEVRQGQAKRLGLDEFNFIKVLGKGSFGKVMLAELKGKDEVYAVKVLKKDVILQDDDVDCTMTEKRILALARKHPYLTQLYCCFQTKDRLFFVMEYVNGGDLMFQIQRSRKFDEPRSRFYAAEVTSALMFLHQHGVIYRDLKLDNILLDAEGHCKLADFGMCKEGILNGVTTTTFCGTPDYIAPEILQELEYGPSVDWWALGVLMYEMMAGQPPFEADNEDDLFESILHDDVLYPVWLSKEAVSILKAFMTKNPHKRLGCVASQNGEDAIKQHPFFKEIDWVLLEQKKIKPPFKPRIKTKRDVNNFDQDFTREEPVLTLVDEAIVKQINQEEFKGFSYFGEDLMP", "sequence of UniProt P15735 (whole entry, looked up)": "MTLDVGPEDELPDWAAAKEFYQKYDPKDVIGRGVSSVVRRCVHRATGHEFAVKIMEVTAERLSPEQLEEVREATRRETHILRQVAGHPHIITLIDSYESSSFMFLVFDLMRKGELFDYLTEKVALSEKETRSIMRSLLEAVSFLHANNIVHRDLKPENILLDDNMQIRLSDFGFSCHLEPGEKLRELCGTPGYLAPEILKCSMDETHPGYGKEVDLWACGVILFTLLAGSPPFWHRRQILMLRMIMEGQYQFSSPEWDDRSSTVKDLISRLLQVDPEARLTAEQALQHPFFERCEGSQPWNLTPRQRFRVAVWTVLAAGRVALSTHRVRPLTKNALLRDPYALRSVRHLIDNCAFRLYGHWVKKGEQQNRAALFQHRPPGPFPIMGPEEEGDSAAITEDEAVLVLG", "sequence of UniProt Q9H2X6 (whole entry, looked up)": "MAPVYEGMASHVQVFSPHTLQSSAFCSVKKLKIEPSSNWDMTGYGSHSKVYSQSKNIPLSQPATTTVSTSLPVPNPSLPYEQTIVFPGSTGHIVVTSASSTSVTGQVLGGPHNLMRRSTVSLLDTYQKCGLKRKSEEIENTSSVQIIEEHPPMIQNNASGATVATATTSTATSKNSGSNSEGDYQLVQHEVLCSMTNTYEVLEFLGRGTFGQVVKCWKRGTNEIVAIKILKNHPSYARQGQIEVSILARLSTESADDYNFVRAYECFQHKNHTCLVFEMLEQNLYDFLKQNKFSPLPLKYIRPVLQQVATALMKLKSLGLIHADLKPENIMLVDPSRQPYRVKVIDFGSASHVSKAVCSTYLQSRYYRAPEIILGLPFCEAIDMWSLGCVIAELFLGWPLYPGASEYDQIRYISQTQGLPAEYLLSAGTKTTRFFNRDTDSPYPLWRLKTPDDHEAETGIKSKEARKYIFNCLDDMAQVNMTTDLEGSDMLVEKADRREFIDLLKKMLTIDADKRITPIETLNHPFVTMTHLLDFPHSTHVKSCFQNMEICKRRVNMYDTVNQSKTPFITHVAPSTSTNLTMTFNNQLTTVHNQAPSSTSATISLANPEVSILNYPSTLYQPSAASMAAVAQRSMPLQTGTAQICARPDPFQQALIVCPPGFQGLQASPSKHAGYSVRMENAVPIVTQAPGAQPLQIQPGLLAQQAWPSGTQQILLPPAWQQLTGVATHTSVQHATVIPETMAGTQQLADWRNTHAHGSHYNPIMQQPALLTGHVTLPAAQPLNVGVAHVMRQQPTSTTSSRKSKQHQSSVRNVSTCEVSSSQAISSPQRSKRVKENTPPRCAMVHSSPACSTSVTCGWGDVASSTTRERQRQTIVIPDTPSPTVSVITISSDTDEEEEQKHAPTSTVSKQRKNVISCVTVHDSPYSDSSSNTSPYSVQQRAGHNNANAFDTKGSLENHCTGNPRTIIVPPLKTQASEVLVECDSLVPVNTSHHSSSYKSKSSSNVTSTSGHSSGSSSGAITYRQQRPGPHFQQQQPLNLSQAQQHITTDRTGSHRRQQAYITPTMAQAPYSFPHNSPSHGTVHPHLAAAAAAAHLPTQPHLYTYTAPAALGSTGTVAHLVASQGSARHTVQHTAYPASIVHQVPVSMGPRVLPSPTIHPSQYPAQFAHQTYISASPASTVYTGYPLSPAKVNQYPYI", "sequence of UniProt Q76MJ5 (whole entry, looked up)": "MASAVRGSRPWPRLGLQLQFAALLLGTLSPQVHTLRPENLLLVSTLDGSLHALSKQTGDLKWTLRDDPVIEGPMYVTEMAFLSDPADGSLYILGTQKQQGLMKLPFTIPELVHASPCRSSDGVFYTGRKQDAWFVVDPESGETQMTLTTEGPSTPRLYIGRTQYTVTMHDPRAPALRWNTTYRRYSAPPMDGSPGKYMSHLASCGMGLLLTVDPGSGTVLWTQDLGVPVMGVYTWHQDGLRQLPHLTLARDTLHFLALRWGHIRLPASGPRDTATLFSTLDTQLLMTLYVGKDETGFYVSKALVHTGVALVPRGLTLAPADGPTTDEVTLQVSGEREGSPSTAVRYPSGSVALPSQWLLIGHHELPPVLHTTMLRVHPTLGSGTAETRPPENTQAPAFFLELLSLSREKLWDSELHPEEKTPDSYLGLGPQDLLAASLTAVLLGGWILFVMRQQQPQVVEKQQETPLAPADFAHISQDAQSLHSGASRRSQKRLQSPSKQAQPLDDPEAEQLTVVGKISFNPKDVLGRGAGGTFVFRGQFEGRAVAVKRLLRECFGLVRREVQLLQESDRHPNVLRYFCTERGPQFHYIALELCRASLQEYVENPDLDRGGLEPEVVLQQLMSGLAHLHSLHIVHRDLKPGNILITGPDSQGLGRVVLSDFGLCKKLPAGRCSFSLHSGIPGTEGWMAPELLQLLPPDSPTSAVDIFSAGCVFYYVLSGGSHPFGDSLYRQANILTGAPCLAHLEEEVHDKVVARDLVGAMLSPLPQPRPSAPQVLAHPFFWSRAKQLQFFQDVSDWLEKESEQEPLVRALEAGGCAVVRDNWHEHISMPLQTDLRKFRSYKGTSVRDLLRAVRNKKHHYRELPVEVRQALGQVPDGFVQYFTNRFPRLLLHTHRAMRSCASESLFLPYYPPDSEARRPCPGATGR", "sequence of UniProt P10398 (whole entry, looked up)": "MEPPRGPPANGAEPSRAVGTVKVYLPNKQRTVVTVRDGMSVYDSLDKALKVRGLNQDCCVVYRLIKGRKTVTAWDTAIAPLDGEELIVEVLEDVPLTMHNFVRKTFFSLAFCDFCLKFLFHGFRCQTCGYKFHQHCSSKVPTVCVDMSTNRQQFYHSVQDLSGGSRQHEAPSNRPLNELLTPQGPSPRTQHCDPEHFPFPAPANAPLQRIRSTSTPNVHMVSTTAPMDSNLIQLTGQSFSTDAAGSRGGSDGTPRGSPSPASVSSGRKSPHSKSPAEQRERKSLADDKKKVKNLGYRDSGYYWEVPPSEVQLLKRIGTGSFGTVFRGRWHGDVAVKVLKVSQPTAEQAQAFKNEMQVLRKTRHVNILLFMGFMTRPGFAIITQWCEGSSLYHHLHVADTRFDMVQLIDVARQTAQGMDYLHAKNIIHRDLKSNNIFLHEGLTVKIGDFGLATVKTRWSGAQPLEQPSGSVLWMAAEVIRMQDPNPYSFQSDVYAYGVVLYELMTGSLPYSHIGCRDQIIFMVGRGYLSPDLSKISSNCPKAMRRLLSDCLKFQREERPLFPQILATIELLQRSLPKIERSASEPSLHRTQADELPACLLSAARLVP", "sequence of UniProt Q15759 (whole entry, looked up)": "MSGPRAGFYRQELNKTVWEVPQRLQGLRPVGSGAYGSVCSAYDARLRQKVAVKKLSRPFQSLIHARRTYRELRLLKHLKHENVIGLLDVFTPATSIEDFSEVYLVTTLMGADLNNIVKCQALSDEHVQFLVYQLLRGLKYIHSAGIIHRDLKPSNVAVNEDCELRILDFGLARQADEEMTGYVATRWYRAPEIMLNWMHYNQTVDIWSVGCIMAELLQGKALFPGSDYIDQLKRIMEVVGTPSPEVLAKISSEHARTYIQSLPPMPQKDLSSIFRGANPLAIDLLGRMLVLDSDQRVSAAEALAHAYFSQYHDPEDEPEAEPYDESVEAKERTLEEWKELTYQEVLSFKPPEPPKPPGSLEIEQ"}
{"data": "Study 1", "target": "Interleukin-1 receptor-associated kinase 1 (IRAK1, Homo sapiens, UniProt P51617)", "effect on": "enzyme activity", "action": "inhibitor", "tested at": "0.5 µM", "relative to": "control", "sequence of UniProt P51617 (whole entry, looked up)": "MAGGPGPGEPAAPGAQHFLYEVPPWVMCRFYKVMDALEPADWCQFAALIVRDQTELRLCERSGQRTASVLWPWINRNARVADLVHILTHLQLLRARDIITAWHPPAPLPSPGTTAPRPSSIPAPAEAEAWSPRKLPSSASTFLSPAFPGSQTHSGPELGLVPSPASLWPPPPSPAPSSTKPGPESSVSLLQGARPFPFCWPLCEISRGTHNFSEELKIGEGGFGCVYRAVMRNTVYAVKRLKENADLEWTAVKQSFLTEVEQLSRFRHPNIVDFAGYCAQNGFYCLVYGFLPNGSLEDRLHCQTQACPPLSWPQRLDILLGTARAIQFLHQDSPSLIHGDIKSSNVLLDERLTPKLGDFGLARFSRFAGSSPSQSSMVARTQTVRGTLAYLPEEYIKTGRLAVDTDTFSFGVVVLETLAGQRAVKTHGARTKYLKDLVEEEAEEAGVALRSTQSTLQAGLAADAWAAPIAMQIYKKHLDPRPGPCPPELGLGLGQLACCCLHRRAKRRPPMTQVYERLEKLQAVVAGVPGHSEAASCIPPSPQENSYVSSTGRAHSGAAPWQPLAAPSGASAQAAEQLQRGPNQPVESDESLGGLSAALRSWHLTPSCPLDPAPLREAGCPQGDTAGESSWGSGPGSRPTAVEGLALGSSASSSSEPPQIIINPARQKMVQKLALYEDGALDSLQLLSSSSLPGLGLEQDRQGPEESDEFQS"}
{"SMILES": "Fc1ccc(-c2nc3n(c2-c2ccncc2)CCS3)cc1", "remaining activity [%]": 125}
{"SMILES": "O=C1Cc2c([nH]c3ccc([N+](=O)[O-])cc23)-c2ccccc2N1", "remaining activity [%]": 93.1}
{"SMILES": "COc1ccc(S(=O)(=O)N(CCO)c2ccccc2CN(C)CC=Cc2ccc(Cl)cc2)cc1", "remaining activity [%]": 98}
{"SMILES": "O=C1NC(=O)C(c2c[nH]c3ccccc23)=C1c1c[nH]c2ccccc12", "remaining activity [%]": 89.6}
{"SMILES": "Nc1nc(Nc2ccc(S(N)(=O)=O)cc2)nn1C(=O)c1c(F)cccc1F", "remaining activity [%]": 89.8}
{"SMILES": "Cc1ccc(NC2=CC(=O)c3sc(C)nc3C2=O)cc1", "remaining activity [%]": 108}
{"SMILES": "CC(=O)c1ccc(N2CCOCC2)cc1O", "remaining activity [%]": 111}
{"SMILES": "CC(C)(C)n1nc(Cc2cccc3ccccc23)c2c(N)ncnc21", "remaining activity [%]": 87}
{"SMILES": "CSc1nc(-c2ccnc(N[C@@H](C)c3ccccc3)c2)c(-c2ccc(F)cc2)[nH]1 (racemic)", "remaining activity [%]": 103}
{"SMILES": "CC[n+]1c(/C=C/N(C)c2ccccc2)n(-c2ccccc2)c2ccc(-c3nc4ccccc4s3)cc21", "remaining activity [%]": 102}
{"SMILES": "Oc1ccc(Nc2nc(-c3ccc(Cl)cc3)cs2)cc1", "remaining activity [%]": 123}
{"SMILES": "CCc1[nH]c(-c2ccc(OC)cc2)nc1-c1ccncc1", "remaining activity [%]": 128}
{"SMILES": "N#CC(=C(N)Sc1ccc(N)cc1)c1ccccc1C(F)(F)F", "remaining activity [%]": 100}
{"SMILES": "NC(=O)c1ccc(N(C(N)=O)c2c(F)cccc2F)nc1-c1ccc(F)cc1F", "remaining activity [%]": 94.2}
{"SMILES": "COc1cc(Nc2c(C#N)cnc3cc(OCCCN4CCN(C)CC4)c(OC)cc23)c(Cl)cc1Cl", "remaining activity [%]": 91.3}
{"SMILES": "CCCC(=O)Oc1ccc2[nH]c(C(=O)c3cc4ccccc4[nH]3)cc2c1", "remaining activity [%]": 90.5}
{"SMILES": "Nc1ncnc2c1cnn2-c1ccccc1", "remaining activity [%]": 85.8}
{"SMILES": "Nc1nccc(-c2c(-c3ccc(F)cc3)ncn2C2CCNCC2)n1", "remaining activity [%]": 114}
{"SMILES": "O=S(=O)(NCCNC/C=C/c1ccc(Br)cc1)c1cccc2cnccc12", "remaining activity [%]": 95.7}
{"SMILES": "Cc1cc(Nc2nc(-c3ccccc3)nc3ccccc23)n[nH]1", "remaining activity [%]": 79.3}
{"SMILES": "CC#CC(=O)Nc1cc2c(Nc3ccc(F)c(Cl)c3)ncnc2cn1", "remaining activity [%]": 104}
{"SMILES": "Cc1cncc2cccc(S(=O)(=O)N3CCCN(C(=O)CN)C[C@@H]3C)c12", "remaining activity [%]": 135}
{"data": "Study 2", "cell line": "mouse MPNST tumor cells", "technique": "high-content immunofluorescence imaging", "measured": "nuclear SOX9", "tested at": "10 µM", "time": "12 h", "notes": "mean of 2 replicates", "relative to": "DMSO control", "reading": "higher = more nuclear SOX9"}
{"SMILES": "O=C(NC1CCOCC1)c1ccc(-c2cc(-c3c[nH]nc3-c3ccccn3)ccn2)cc1", "nuclear SOX9 intensity": "63.7 % of DMSO"}
{"SMILES": "NC(Cc1cc(I)c(Oc2cc(I)c(O)c(I)c2)c(I)c1)C(=O)O (stereo not drawn)", "nuclear SOX9 intensity": "84 % of DMSO"}
{"SMILES": "Clc1cccc(Nc2nnc(-c3ccccc3)c3ccccc23)c1", "nuclear SOX9 intensity": "110 % of DMSO"}
{"SMILES": "O=C(NN=Cc1ccccc1O)c1ccccc1O", "nuclear SOX9 intensity": "111 % of DMSO"}
{"SMILES": "CC(S)C(=O)NCC(=O)O (stereo not drawn)", "nuclear SOX9 intensity": "146 % of DMSO"}
{"SMILES": "Cc1cnc(NC(=O)c2cc(Oc3cnc(C(=O)N(C)C)nc3)c3cc(C)oc3c2)cn1", "nuclear SOX9 intensity": "104 % of DMSO"}
{"SMILES": "CCN(Cc1ccncc1)C(=O)C(CO)c1ccccc1 (stereo not drawn)", "nuclear SOX9 intensity": "106 % of DMSO and 95.4 % of DMSO"}
{"SMILES": "CC(CCc1ccc(O)cc1)NCCc1ccc(O)c(O)c1 (stereo not drawn)", "nuclear SOX9 intensity": "103 % of DMSO and 99.7 % of DMSO"}
{"SMILES": "COC(=O)c1ccc(N2CCN(C)CC2)c(NC(=O)c2cccc(OC)c2)c1", "nuclear SOX9 intensity": "103 % of DMSO"}
{"SMILES": "NCCC[C@H](N)CC(=O)N[C@H]1CNC(=O)[C@H]([C@H]2C[C@H](O)NC(N)=N2)NC(=O)/C(=C/NC(N)=O)NC(=O)[C@H](CO)NC(=O)[C@H](CO)NC1=O", "nuclear SOX9 intensity": "104 % of DMSO"}
{"SMILES": "C/C(=C\\C(=O)Nc1ccccc1C(=O)O)c1ccc2ccccc2c1", "nuclear SOX9 intensity": "105 % of DMSO"}
{"SMILES": "O=S(=O)(O)c1cc(O)ccc1O", "nuclear SOX9 intensity": "88.5 % of DMSO"}
{"SMILES": "CN[C@@H](C)C(=O)N[C@H](C(=O)N1CCC[C@H]1C(=O)N[C@@H]1CCCc2ccccc21)C1CCCCC1", "nuclear SOX9 intensity": "148 % of DMSO"}
{"SMILES": "CCn1c(-c2nonc2N)nc2cncc(C(=O)N3CC[C@H](N)C3)c21", "nuclear SOX9 intensity": "156 % of DMSO"}
{"SMILES": "Cc1cc(C)nc(NS(=O)(=O)c2ccc(NC(=S)NC(=O)COc3ccc(Br)cc3Cl)cc2)n1", "nuclear SOX9 intensity": "90.8 % of DMSO"}
{"SMILES": "CN(C(=O)CN(CCO)CC(=O)N(C)C(C)(C)Cc1ccccc1)C(C)(C)Cc1ccccc1", "nuclear SOX9 intensity": "141 % of DMSO"}
{"SMILES": "Fc1ccc(CNc2ncnc3ccc(F)cc23)cc1", "nuclear SOX9 intensity": "124 % of DMSO"}
{"data": "Study 3", "Compound": "O=C(Nc1cnn(-c2csc(C(=O)NC3COC3)c2)c1)Nc1ccccc1Cl", "tested at": "5 µM"}
{"target": "MAP4K3 (Homo sapiens, UniProt Q8IVH8)", "test": "enzyme activity", "how to read": "relative to: untreated control", "remaining activity [%]": 96.2}
{"target": "MAPK11 (Homo sapiens, UniProt Q15759)", "test": "enzyme activity", "how to read": "relative to: untreated control", "remaining activity [%]": 98}
{"target": "PRKCE (Homo sapiens, UniProt Q02156)", "test": "enzyme activity", "how to read": "relative to: untreated control", "remaining activity [%]": 98.3}
{"target": "WNK1 (Homo sapiens, UniProt Q9H4A3)", "test": "enzyme activity", "how to read": "relative to: untreated control", "remaining activity [%]": 97.4}
{"target": "LIM domain kinase 2 (LIMK2, Homo sapiens, UniProt P53671)", "test": "enzyme activity", "how to read": "relative to: untreated control", "remaining activity [%]": 96.2}
{"target": "PRKG1 (Homo sapiens, UniProt Q13976)", "test": "kinase activity, kinase panel profiling", "remaining activity [%]": 110}
{"target": "PHKG2 (Homo sapiens, UniProt P15735)", "test": "enzyme activity", "how to read": "relative to: untreated control", "remaining activity [%]": 98.2}
{"target": "TEC (Homo sapiens, UniProt P42680)", "test": "enzyme activity", "how to read": "relative to: untreated control", "remaining activity [%]": 95}
{"target": "CSK (Homo sapiens, UniProt P41240)", "test": "enzyme activity", "how to read": "relative to: untreated control", "remaining activity [%]": 98.3}
{"target": "EPHB2 (Homo sapiens, UniProt P29323)", "test": "enzyme activity", "how to read": "relative to: untreated control", "remaining activity [%]": 99.3}
{"target": "AKT2 (Homo sapiens, UniProt P31751)", "test": "enzyme activity", "how to read": "relative to: untreated control", "remaining activity [%]": 89.5}
{"target": "TTBK2 (Homo sapiens, UniProt Q6IQ55)", "test": "enzyme activity", "how to read": "relative to: untreated control", "remaining activity [%]": 106}
{"target": "ERN2 (Homo sapiens, UniProt Q76MJ5)", "test": "enzyme activity", "how to read": "relative to: untreated control", "remaining activity [%]": 100}
{"target": "SIK2 (Homo sapiens, UniProt Q9H0K1)", "test": "enzyme activity", "how to read": "relative to: untreated control", "remaining activity [%]": 96.8}
{"target": "LIM domain kinase 1 (LIMK1, Homo sapiens, UniProt P53667)", "test": "enzyme activity", "how to read": "relative to: untreated control", "remaining activity [%]": 96}
{"target": "ARAF (Homo sapiens, UniProt P10398)", "test": "enzyme activity, inhibitor", "remaining activity [%]": 95.1}
{"data": "Study 4", "Structure (SMILES)": "CS(=O)(=O)c1cc(C2(NC(=O)c3cncc4c3cnn4-c3ccc(F)cc3)CC2)ccn1", "effect on": "cell-free assay", "technique": "competition with immobilised ligand", "tested at": "1 µM"}
{"target": "Tyrosine-protein kinase ABL1, phosphorylated (ABL1, Homo sapiens, UniProt P00519, Q252H)", "remaining binding": "100%"}
{"target": "HIPK2 (Homo sapiens, UniProt Q9H2X6)", "remaining binding": "100%"}
{"target": "Tyrosine-protein kinase ABL1, non-phosphorylated (ABL1, Homo sapiens, UniProt P00519)", "remaining binding": "86%"}
{"target": "Ribosomal protein S6 kinase alpha-6, C-terminal kinase domain (RPS6KA6, Homo sapiens, UniProt Q9UK32)", "remaining binding": "64%"}
{"target": "EGFR (Homo sapiens, UniProt P00533, del747-752/P753S)", "remaining binding": "66%"}
{"target": "VRK2 (Homo sapiens, UniProt Q86Y07)", "remaining binding": "100%"}
{"target": "PRKD2 (Homo sapiens, UniProt Q9BZL6)", "remaining binding": "97%"}
{"target": "RIOK3 (Homo sapiens, UniProt O14730)", "remaining binding": "100%"}
{"target": "PRPF4B (Homo sapiens, UniProt Q13523)", "remaining binding": "100%"}
{"target": "MAP3K4 (Homo sapiens, UniProt Q9Y6R4)", "remaining binding": "87%"}
{"target": "CSNK1A1L (Homo sapiens, UniProt Q8N752)", "remaining binding": "100%"}
{"target": "PKMYT1 (Homo sapiens, UniProt Q99640)", "remaining binding": "85%"}
{"target": "BRAF (Homo sapiens, UniProt P15056, V600E)", "remaining binding": "94%"}
{"target": "LATS1 (Homo sapiens, UniProt O95835)", "remaining binding": "98%"}
{"target": "SYK (Homo sapiens, UniProt P43405)", "remaining binding": "100%"}
{"target": "MET (Homo sapiens, UniProt P08581)", "remaining binding": "100%"}
{"target": "MAP3K6 (Homo sapiens, UniProt O95382)", "remaining binding": "100%"}
{"note": "A few entries again (study 3):"}
{"target": "LIM domain kinase 2 (LIMK2, Homo sapiens, UniProt P53671)", "test": "enzyme activity", "how to read": "relative to: untreated control", "remaining activity [%]": 96.2}
{"target": "PRKG1 (Homo sapiens, UniProt Q13976)", "test": "kinase activity, kinase panel profiling", "remaining activity [%]": 110}
{"target": "PHKG2 (Homo sapiens, UniProt P15735)", "test": "enzyme activity", "how to read": "relative to: untreated control", "remaining activity [%]": 98.2}
{"target": "TEC (Homo sapiens, UniProt P42680)", "test": "enzyme activity", "how to read": "relative to: untreated control", "remaining activity [%]": 95}
{"target": "CSK (Homo sapiens, UniProt P41240)", "test": "enzyme activity", "how to read": "relative to: untreated control", "remaining activity [%]": 98.3}
{"target": "EPHB2 (Homo sapiens, UniProt P29323)", "test": "enzyme activity", "how to read": "relative to: untreated control", "remaining activity [%]": 99.3}
{"target": "AKT2 (Homo sapiens, UniProt P31751)", "test": "enzyme activity", "how to read": "relative to: untreated control", "remaining activity [%]": 89.5}
{"target": "TTBK2 (Homo sapiens, UniProt Q6IQ55)", "test": "enzyme activity", "how to read": "relative to: untreated control", "remaining activity [%]": 106}
{"target": "ERN2 (Homo sapiens, UniProt Q76MJ5)", "test": "enzyme activity", "how to read": "relative to: untreated control", "remaining activity [%]": 100}
{"target": "SIK2 (Homo sapiens, UniProt Q9H0K1)", "test": "enzyme activity", "how to read": "relative to: untreated control", "remaining activity [%]": 96.8}
{"target": "LIM domain kinase 1 (LIMK1, Homo sapiens, UniProt P53667)", "test": "enzyme activity", "how to read": "relative to: untreated control", "remaining activity [%]": 96}
{"target": "ARAF (Homo sapiens, UniProt P10398)", "test": "enzyme activity, inhibitor", "remaining activity [%]": 95.1}
